{"data": "Assay results pooled from the literature", "note": "Each line is one published result; not all experiments were run side by side. Several values in a cell are separate wells, animals, samples, runs or records. ± marks the error that the study gave."}
{"SMILES": "Cc1cc2c(C(=O)Cc3ccccc3)c(O)c(O)cc2c(O)c1-c1c(C)cc2c(C(=O)Cc3ccccc3)c(O)c(O)cc2c1O", "cell line": "H1299", "assay": "cell viability, ATP luminescence", "conditions": "72 h", "EC50": "3.5 µM"}
{"SMILES": "F[P-](F)(F)(F)(F)F.F[P-](F)(F)(F)(F)F.[Ru+2].c1ccc(-c2ccccn2)nc1.c1ccc(-c2ccccn2)nc1.c1csc(-c2ccc(-c3ccc(-c4cc5cccnc5c5ncccc45)s3)s2)c1", "cell line": "SK-MEL-28", "assay": "cell viability", "conditions": "dark", "EC50": "50 ± 3 µM"}
{"SMILES": "CC(C)C(C)C=CC(C)C1CCC2C1(C)CCC1C23C=CC2(CC(OC(=O)CCCCC4SCC5NC(=O)NC54)CCC12C)OO3 (centres unmarked)", "cell line": "SUM149", "assay": "cell growth or viability, ATP luminescence", "EC50": "4 µM"}
{"SMILES": "CCOC(=O)c1ccc(NC(=S)Nc2ccc3c(c2)C(C)(C)CC(C)(C)S3)cc1", "cell line": "786-O", "assay": "cell growth, MTS", "conditions": "48 h", "EC50": "7.2 ± 0.72 µM"}
{"SMILES": "CSCC[C@H](NC(=O)[C@@H](NC(=O)[C@H](CCSC)NC(=O)[C@H](Cc1ccc(O)cc1)NC(=O)[C@H](CCCCN)NC(=O)[C@@H](N)Cc1c[nH]c2ccccc12)C(C)C)C(N)=O", "cell line": "human neutrophils", "assay": "calcium mobilisation, agonist", "conditions": "together with: 2.5 mM probenecid", "EC50": "0.0014 µM"}
{"SMILES": "C=CC(=O)Nc1cc(-c2nn(C3CCC(N4CCN(C(C)=O)CC4)CC3)c3ncnc(N)c23)ccc1Oc1ccccc1 (centres unmarked)", "cell line": "OVCAR-8", "assay": "cell growth or viability, ATP luminescence", "conditions": "72 h", "EC50": "≥ 10 µM and > 10 µM"}
{"SMILES": "F[P-](F)(F)(F)(F)F.F[P-](F)(F)(F)(F)F.[Ru+2].c1ccc(-c2ccccn2)nc1.c1ccc(-c2ccccn2)nc1.c1csc(-c2cc3cccnc3c3ncccc23)c1", "cell line": "SK-MEL-28", "assay": "cell viability, resazurin", "conditions": "16 h drug-to-light interval, together with: visible light 100 J/cm2", "EC50": "1.4 µM and 1.39 µM"}
{"SMILES": "CCCCCCCCC1(CCCCCCCC)c2cc(-c3cc4[n+]5c(c3)-c3cccc[n+]3[Ir-3]536([c]5c(c(C)cc(C)c5-c5cccc[n+]53)-c3cccc[n+]36)[n+]3ccccc3-4)ccc2-c2ccc(-c3cc4[n+]5c(c3)-c3cccc[n+]3[Ir-3]536([c]5c(c(C)cc(C)c5-c5cccc[n+]53)-c3cccc[n+]36)[n+]3ccccc3-4)cc21.F[P-](F)(F)(F)(F)F.F[P-](F)(F)(F)(F)F.F[P-](F)(F)(F)(F)F.F[P-](F)(F)(F)(F)F", "cell line": "SK-MEL-28", "assay": "cell viability, resazurin", "conditions": "16 h plus 48 h, dark", "EC50": "~50 µM and 49.9 µM"}
{"SMILES": "Cc1sc2c(c1C)C(c1ccc(Cl)cc1)=N[C@@H](CC(=O)OC(C)(C)C)c1nnc(C)n1-2", "cell line": "HD-MB03", "EC50": "> 2 µM"}
{"SMILES": "CC[C@H](C)[C@H](NC(=O)[C@H](CC(N)=O)NC(=O)[C@H](CCCCN)NC(=O)[C@H](Cc1ccccc1)NC(=O)[C@H](Cc1ccccc1)NC(=O)[C@H](Cc1c[nH]cn1)NC(=O)[C@@H](NC(=O)[C@@H](NC(=O)[C@@H]1CCCN1C(=O)[C@@H](N)CC(N)=O)C(C)C)C(C)C)C(=O)N[C@H](C(=O)N[C@H](C(=O)N[C@@H](C)C(=O)O)[C@@H](C)O)C(C)C", "cell line": "T cell clone Ob.1A12", "assay": "T cell proliferation, agonist, [3H]thymidine incorporation", "conditions": "72 h, peptide-pulsed APC, together with: EBV-transformed B cells DR2/DQ6 as APC", "EC50": "50 µM"}
{"SMILES": "CC(C)[C@@H]1NC(=O)[C@H](CO)NC(=O)[C@H](CO)NC(=O)[C@H](CO)N(C)C(=O)[C@H](CC(=O)O)NC(=O)[C@H](CO)NC(=O)[C@H](Cc2ccccc2)NC(=O)CSC[C@@H](C(=O)NCC(N)=O)NC(=O)[C@H](CC(N)=O)NC(=O)[C@H](CCCNC(=N)N)NC(=O)[C@H](Cc2ccc(-c3ccccc3)cc2)NC(=O)[C@H](Cc2ccc(-c3ccccc3)cc2)NC(=O)[C@H](CC(N)=O)NC(=O)[C@@H]2CCCN2C1=O", "cell line": "SJSA-1", "assay": "cell growth or viability", "EC50": "> 30 µM"}
{"note": "Some of these lines once more:"}
{"SMILES": "C=CC(=O)Nc1cc(-c2nn(C3CCC(N4CCN(C(C)=O)CC4)CC3)c3ncnc(N)c23)ccc1Oc1ccccc1 (centres unmarked)", "cell line": "OVCAR-8", "assay": "cell growth or viability, ATP luminescence", "conditions": "72 h", "EC50": "≥ 10 µM and > 10 µM"}
